Earlier results as cited in several papers.
Numbered parts are unrelated; values within a part may stem from several laboratories. Numbers after ± are the reported error. In brackets after ≈: the same amount, converted by molar mass.
UniProt G8XHD5, sequence (whole entry, looked up): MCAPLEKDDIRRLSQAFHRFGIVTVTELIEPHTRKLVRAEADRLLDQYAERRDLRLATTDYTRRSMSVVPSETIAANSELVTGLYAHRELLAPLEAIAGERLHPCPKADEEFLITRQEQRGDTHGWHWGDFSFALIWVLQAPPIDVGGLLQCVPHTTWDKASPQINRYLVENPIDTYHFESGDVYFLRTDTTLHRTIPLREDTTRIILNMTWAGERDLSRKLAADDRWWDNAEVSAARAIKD

Set 1
Target: HLA class I histocompatibility antigen, B alpha chain, allele B*18:01 (Homo sapiens, UniProt P01889)
Observed: peptide-MHC binding
Molecule type: peptide
Endpoint: IC50
FESVAWSA: 5.69 nM
FEFTSFFY: < 1 nM
DEQSIAEA: 4.48 nM

Mixed results
Cc1ncc2n1-c1ccc(Cl)cc1C(c1ccccc1F)=NC2  Km (CYP3A5; 4-hydroxylation, substrate): 38.4 µM
C/C(=C\C(=O)OCCCCCCCCC(=O)O)C[C@@H]1OC[C@H](C[C@@H]2O[C@H]2[C@@H](C)[C@H](C)O)[C@@H](O)[C@H]1O  MIC range (Staphylococcus aureus; MRSA low-level resistant): 16 to 512 µM (≈ 8.01 to 256 µg/mL)
CCCCCCCCCCCCCCCCn1cc[n+](Cc2ccccc2)c1C.[I-]  MBEC (Staphylococcus aureus; biofilm eradication, Calgary biofilm device; MRSA BAA-1707): 46.9 µM
Picrotoxin  activity (Cryptosporidium parvum; HTS; concentration not given): inactive
NCCCC[C@H](N)C(=O)O  Kd (L-lysine 4-chlorinase (besD, Streptantibioticus cattleyicolor, UniProt G8XHD5); equilibrium dialysis, HPLC; anaerobic, together with: lysine): 43000 ± 3000 nM

Excerpt of the above (set 1):
FEFTSFFY: < 1 nM
